Experimental data collected from several papers.
Protocols differ between the studies behind these lines. Values joined by “and” are separate records of one study, mostly repeats; a detail may differ.
Target: Serine/threonine-protein kinase BRSK2 (BRSK2, Homo sapiens, UniProt Q8IWQ3)

SMILES | test | system | conditions | scale | endpoint | value
CCn1cc(C(=O)O)c(=O)c2c(N)c(F)c(NC3CCCCC3)cc21 | kinase activity | – | 0.1 µM, added: ATP at Km | – | inhibition | 7.7%
Nc1ncc(-c2cc(-c3cnn(CC(F)(F)F)c3)ncc2F)nc1C(=O)NC1CNCC(F)C1 (stereo not drawn) | enzyme activity | – | 1 µM | relative to: DMSO control | remaining activity | 66.5%
Cc1ccc(C)c(-c2ccc3nc(NC(=O)C4CCCCC4)nn3c2)c1 | enzyme activity, Dundee kinase panel | – | 10 µM | – | remaining activity | 76%
NC(=O)C[C@H]1CCc2sc3ncnc(O[C@H]4CC[C@H](N5CCOCC5)CC4)c3c21 | enzyme activity, inhibitor | – | 10 µM | – | inhibition | 2%
COc1c(Cl)cccc1Nc1c(-c2ccncc2C#C[C@@]2(C)CCCN2C(=O)/C=C/CN(C)C)[nH]c2c1C(=O)NCC2 | binding, competition with immobilised ligand | – | 3 µM | – | remaining binding | 90%
N[C@H]1CC[C@H](Nc2nccc(-c3cccnc3Oc3ccc(NC(=O)NC4CC4)c4ccccc34)n2)CC1 | kinobead competition pulldown | HEK293/HCT116 lysate mixture | 10 µM, 1 h, 4 °C | lower = stronger competition | log2 LFQ intensity | 22.5 and 22.7 and 22.6
CNC(=O)C[C@H](Cc1ccc(C#N)cc1)NC(=O)c1cc(-c2ccc(CN[C@H](C)c3ccc(C)cc3)o2)ccc1Cl | enzyme activity, inhibitor | – | 1 µM | – | activity vs control | 97%
C=CC(=O)N1CCCC(n2c(=O)c3ncccc3n(Cc3ccc(Oc4ccccc4)cc3)c2=O)C1 (stereo not drawn) | cell-free assay, competition with immobilised ligand | – | 1 µM | – | remaining binding | 98%
COc1ccc(O)cc1-c1c[nH]c2ncc(-c3cncc(C(=O)N(C)C)c3)cc12 | binding, competition with immobilised ligand | – | 0.2 µM | – | inhibition | -4.25%
CN1CCN(Cc2ccc(-c3ccc(CO[C@H]4CCC[C@@H]4NC(=O)c4cc(-c5cnn(C)c5)cnc4N)cc3)cc2)CC1 | enzyme activity, inhibitor | – | 0.1 µM | – | inhibition | -2%
O=C=[N][Ru-4]123([n]4c5ccc(O)cc5c5c6c(c7cc(F)c[n+]1c7c54)C(=O)NC6=O)[S+]1CC[S+]2CC[S+]3CC1 (stereo not drawn) | enzyme activity | – | 100 nM, human enzyme, added: 10 µM ATP | relative to: untreated | remaining activity | 80%
Cc1cccc(O[C@H]2CCC[C@@H](C(C)CNCc3ccncc3)C2)c1 (relative stereo) | enzyme activity, inhibitor | – | 10 µM | – | inhibition | -9%
C=CC(=O)Nc1cccc(-c2cnc3[nH]cc(C(=O)NC(C)(C)C)c3n2)c1 | kinase activity | – | 0.1 µM | – | inhibition | 37% and 34%
COc1cc(Nc2nccc(-c3cnn4nc(OC)ccc34)n2)cc(C(F)(F)F)c1 | binding, competition with immobilised ligand | – | 1 µM | – | remaining binding | 89%
Cc1cccc(-c2ccc3nc(NC(=O)C4CCOCC4)nn3c2)c1 | enzyme activity, Dundee kinase panel | – | 10 µM | – | remaining activity | 67%
Cc1ccc(-c2c(/C=C(\C#N)C(=O)NC(C)C)n(CCCO)c3ncnc(N)c23)cc1 | cell-free assay, competition with immobilised ligand | – | 1 µM | – | remaining binding | 100%
C=CC(=O)N1Cc2nc(-c3cc(-c4cc(Cl)cnc4Cl)c(F)cc3F)n(-c3ccncn3)c2C1 | cell-free assay, inhibitor | – | 1 µM | – | inhibition | -6.9%
CC(C)=CC1OC(C)(C)C2C=C3C(=O)C(Cl)=CC(O)C3C3C(O)C4OC4C(=O)C132 (stereo not drawn) | cell-free assay, competition with immobilised ligand | – | 10 µM | – | remaining binding | 83%

Some of these lines once more:
SMILES | test | system | conditions | scale | endpoint | value
COc1ccc(O)cc1-c1c[nH]c2ncc(-c3cncc(C(=O)N(C)C)c3)cc12 | binding, competition with immobilised ligand | – | 0.2 µM | – | inhibition | -4.25%
C=CC(=O)N1CCCC(n2c(=O)c3ncccc3n(Cc3ccc(Oc4ccccc4)cc3)c2=O)C1 (stereo not drawn) | cell-free assay, competition with immobilised ligand | – | 1 µM | – | remaining binding | 98%
